# Results pooled from the literature.
# A part holds a random share of what one study measured.

# Set 1 — method: RNA Bind-n-Seq; molecule type: RNA; sample: in vitro; tested at: 365 nM; relative to: no-protein control; reading: higher = stronger binding
# Target: RNA binding protein fox-1 homolog 2, RRM domain, GST-SBP tag (RBFOX2, Homo sapiens, UniProt O43251-10, residues 100-194)
# Notes: natural RNA segment, single round, ends assumed
# Residues (chain): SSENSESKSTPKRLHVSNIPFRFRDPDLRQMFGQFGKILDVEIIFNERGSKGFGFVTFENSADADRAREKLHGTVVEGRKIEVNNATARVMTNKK
Strand,RBNS enrichment (R)
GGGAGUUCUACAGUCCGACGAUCCUUUUGUCAGGAUAACAUCAUAUAGCAUCUUGUUUGUUUUUCCUAAUCUCUAUGUACAUAUCUAUCUACCUGUAACCGUAGAUAGGUAUCUAGAUAGAUACCAAGCUUUUUGGAAUUCUCGGGUGCCAA,1.22
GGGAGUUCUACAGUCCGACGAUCGGCUGUGAUAAGUAGGUUUUGAUUGAGUGAAAGCAUGAGCUUGUUCAGAGUGAGGGGCAUAGUGAAAAAGGAACAGCCAUGCCUCAAAAUCAAAUCAUUUGCAUUCCCACUGGAAUUCUCGGGUGCCAA,18.1
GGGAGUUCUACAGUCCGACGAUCCCUCUGAACACUCUGGUUUCCCCACCCAACUGCGGCUAAGUCUCUUUUUCCCUUGGAUCAGCCAAGCGAAACUUGGAGCUUUGACAAGGAACUUUCCUAAGAAACCGCUGUGGAAUUCUCGGGUGCCAA,0.263
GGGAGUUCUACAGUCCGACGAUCGUAUCGGGAUCUUUGUUGGUUUGACAUUGCUGUUUUGGGUUAAGAUAUUGAGUCUAGGCUCCAAUUACUCUCUAUCCUGUCUUUAGAGAGCUGUGAUUGAGUGUGCUAUUUGGAAUUCUCGGGUGCCAA,0.915
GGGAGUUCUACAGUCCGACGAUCAGCCACAGCUUAGGCCCUCAGCCUCACUCCCUGGCUUGCUCAGUGCCUACAGCCCUGUUACCUGAUACCUGUGCUUUAUCCCAGGGGUGGGCAGACCUCUUAACCUUAUAUGGAAUUCUCGGGUGCCAA,0.621
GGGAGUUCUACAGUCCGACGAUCACCGGGGUCAGGUCUCUCAUCUUAAGAAGUUCCCUCUAAAAUGAAAGGUUGUGUAAGAGGAAAGCCUGCUCAGGCCCAAGGGUUUCGAGAACCUGCACUUGGUGCUAAUCUGGAAUUCUCGGGUGCCAA,0.705
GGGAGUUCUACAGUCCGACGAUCAGACCCCAUACCCGCCCUUGAGUCUGUUUGCAAUUCCUGGGAUCAGGCCCACUCCAGGAGGUGGGCCUCUGGAAUUACAUCUCUACCCUACCCACUUUGGAACCCACUUUUGGAAUUCUCGGGUGCCAA,0.891
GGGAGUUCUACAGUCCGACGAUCAACACUACAGCCUGCCUUGGAGCUGGCCUAUCUCUGGGGGUGUUAGAGAGUUUGUGGGGAUCUCUUCUGAGUACCCCAGGACUUGGGAAAUAAUGCAAGAGUAUCCCUUUUGGAAUUCUCGGGUGCCAA,1.6
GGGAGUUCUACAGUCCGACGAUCACAUCAAGCAUCAUCGUCCCCAUGCAACAACAACCAUCACCUUAUACAUCACUUCCUGUUUUAUGCAGCUCAAAAAACAUAGACUGAAGAUUUAUUUUUUAAUAUGUUGAUGGAAUUCUCGGGUGCCAA,0.331

# Set 2 — method: RNA Bind-n-Seq; molecule type: RNA; sample: in vitro; tested at: 200 nM; notes: whole 134-nt RNA, ends assumed; added: 150 mM KCl; relative to: input library; reading: higher = stronger binding
# Target: Ras GTPase-activating protein-binding protein 1, full length (G3BP1, Homo sapiens, UniProt Q13283)
# UniProt Q13283, sequence (whole entry, looked up): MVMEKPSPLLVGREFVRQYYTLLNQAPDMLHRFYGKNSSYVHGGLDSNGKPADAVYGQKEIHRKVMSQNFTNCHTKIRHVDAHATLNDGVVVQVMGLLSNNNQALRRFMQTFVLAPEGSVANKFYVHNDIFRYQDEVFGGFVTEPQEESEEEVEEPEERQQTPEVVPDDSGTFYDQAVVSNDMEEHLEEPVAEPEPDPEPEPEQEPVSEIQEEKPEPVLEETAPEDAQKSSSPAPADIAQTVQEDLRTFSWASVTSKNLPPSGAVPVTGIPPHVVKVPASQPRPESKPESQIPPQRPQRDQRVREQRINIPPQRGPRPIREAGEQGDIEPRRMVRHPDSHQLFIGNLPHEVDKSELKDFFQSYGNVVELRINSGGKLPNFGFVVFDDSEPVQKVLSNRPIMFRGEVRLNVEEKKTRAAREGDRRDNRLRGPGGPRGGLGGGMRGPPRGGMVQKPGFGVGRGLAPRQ
Strand,log2 enrichment
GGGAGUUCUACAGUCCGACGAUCAGUCCUGUGCUACACAUCGUAUGUACCGAAUCGGGUUUGGGAAAAAGGGUUUUUGGGAAAGUAUUAUGUUACGCCGUUCGGAUCUGCACUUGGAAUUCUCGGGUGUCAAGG,-0.101
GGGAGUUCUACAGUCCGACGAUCAGUCCUGUGCUACACAUCGUAUGUACCGAAUCGGGGUUUGGGGAGGGGAAAAAGGGGAAAGUAUUAUGUUACGCCGUUCGGAUCUGCACUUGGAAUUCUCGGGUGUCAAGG,0.209
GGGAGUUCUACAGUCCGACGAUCUUAUCUGUGGACUUCACCCAAAAGGAGUGGCAGCUACUGGAUCCCUCUCAGAAGAAUUUAUACAAGGAUGUGAUGUUGGAGAACUAUAGCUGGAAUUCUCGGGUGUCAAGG,-0.386
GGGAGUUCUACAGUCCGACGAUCAUGCACUUGACAUAGUAGCAAAUUGGUUCUGAAUUAUGCAACUGUUUGCUAUUUAGUAAACUAGCAAAUGAUGCAUGUAUUUUGUUUUUCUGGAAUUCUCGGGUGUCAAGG,-2.09
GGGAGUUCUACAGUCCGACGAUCUCCUUCCUUUUUUUGUCUUAAACAUAGGACAUGGAUUUGAUUGACAUACUUUGGAGGCAAGAUAUAGAUCUUGGAGUAAGUCGAGAAGUAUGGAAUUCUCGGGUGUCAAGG,-0.21
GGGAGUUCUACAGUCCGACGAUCUCAAGUCCUGUGCUACACAUCGUAUGUACCGAAUCGGAAAAAGGAAAAAGGAGGAAAGUAUUAUGUUACGCCGUUCGGAUCUGCACUUCCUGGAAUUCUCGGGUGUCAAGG,-0.827
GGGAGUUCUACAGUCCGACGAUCGUCCUGUGCUACACAUCGUAUGUACCGAAUCGGGAAAAAGGGAAAAAAAGGGAAAGGGAAAGUAUUAUGUUACGCCGUUCGGAUCUGCACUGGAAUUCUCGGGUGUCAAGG,-0.493
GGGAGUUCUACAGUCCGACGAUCAAGUCCUGUGCUACACAUCGUAUGUACCGAAUCGGGUGGGAAAGGGUUUUUUUGGGAAAGUAUUAUGUUACGCCGUUCGGAUCUGCACUUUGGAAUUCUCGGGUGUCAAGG,0.103
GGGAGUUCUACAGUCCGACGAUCCCUGUGCUACACAUCGUAUGUACCGAAUCGGGGAAAAAGGGGUUUGGGGUUUUUUUGGGGAAAGUAUUAUGUUACGCCGUUCGGAUCUGCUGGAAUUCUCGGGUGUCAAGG,0.25
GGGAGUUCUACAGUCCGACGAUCCAAGUCCUGUGCUACACAUCGUAUGUACCGAAUCGGGCCCCGGCCCCGGGCCCCGGAAAGUAUUAUGUUACGCCGUUCGGAUCUGCACUUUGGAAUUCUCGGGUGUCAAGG,-0.829

# Set 3 — method: competition protein-binding microarray; molecule type: double-stranded DNA, one strand shown; sample: in vitro; tested at: 2 µM; added: Cbf1 competitor, 0.05 µM; reading: higher = stronger binding
# Target: Phosphate system positive regulatory protein PHO4, full length, GST-tagged (PHO4, Saccharomyces cerevisiae, UniProt P07270, residues 1-312)
# Notes: whole 60-bp probe, lowest competitor level
# Residues (chain): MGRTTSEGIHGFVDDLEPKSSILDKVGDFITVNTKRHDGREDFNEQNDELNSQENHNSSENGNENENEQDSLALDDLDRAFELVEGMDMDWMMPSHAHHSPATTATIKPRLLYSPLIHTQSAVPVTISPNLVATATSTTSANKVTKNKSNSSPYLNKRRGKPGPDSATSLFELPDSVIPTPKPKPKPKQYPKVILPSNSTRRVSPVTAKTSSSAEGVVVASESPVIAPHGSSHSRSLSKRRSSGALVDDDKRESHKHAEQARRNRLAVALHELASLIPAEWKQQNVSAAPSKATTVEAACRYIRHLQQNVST
Strand,fluorescence intensity
GGGTGTTTTAAAAAGCACCTGACTTTTTCAATTGAAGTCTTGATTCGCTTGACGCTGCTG,4070 a.u.
GAAAGCACTTTACTTCACGTGGGTACTATTCAGGTTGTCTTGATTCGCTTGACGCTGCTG,15900 a.u.
GTCGACAACTACTTAGTCGTGATGGAACAGTATGGAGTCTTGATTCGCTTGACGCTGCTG,5040 a.u.
AAAGCGGTAATTTGGAACGTGGGTGCAGATATCTATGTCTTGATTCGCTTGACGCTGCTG,14000 a.u.
AAGGTTTCGTTATCTACCGTGTCGGAGTTAGAAGTGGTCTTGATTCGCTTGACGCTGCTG,5450 a.u.
CTTTCCCGATCTTGCTAGGTGGGTGTAGCACATTTGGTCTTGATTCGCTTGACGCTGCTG,4400 a.u.
AATTCCAATCAAAAAGTTGGTGTTAGGCTATACTGAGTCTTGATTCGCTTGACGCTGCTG,2950 a.u.
CTTCCGCGCCGTATGTGTGTGTGTCCAAGGAGTTTGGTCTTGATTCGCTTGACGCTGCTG,5810 a.u.
GCCACCATGGATCCACACGTATTTGGATCATCTTCGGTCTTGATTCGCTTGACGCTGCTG,5920 a.u.
CAAACGTCTGTTTGCCACGGGCATCGCAAATCTTACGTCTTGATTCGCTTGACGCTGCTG,7280 a.u.
CGAGTGTCATATTATATTAGATATTCATTTTTTTGCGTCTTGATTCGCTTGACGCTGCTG,3670 a.u.
ACCTAGAGAAACCAAAACGTGATGGCCTGCTGGGATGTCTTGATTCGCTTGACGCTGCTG,13100 a.u.
TCCAGGGAAACAAGCCAGGCGCAGGCACCTTAATAAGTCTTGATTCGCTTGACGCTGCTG,3280 a.u.
CTTTCCCGATCTTGGTAAGTGGGTGTAGCACATTTGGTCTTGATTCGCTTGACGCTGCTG,4300 a.u.
TGCGCAACAACTTGCGCTGTGGGTGTATGTCTAGAAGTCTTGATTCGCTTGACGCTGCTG,4590 a.u.
TGAGTTCTCCTTCATTGCGTGATGGATCATCAAGTGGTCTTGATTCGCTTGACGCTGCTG,4650 a.u.
TTGGGGTTTATATCGCACGCTTATATTTGGGCCAGCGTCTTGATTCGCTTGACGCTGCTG,6860 a.u.
CGTCCTAGCGATTGACGGGTGGGTGCCATGAGGAAGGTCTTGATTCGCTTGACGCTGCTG,7200 a.u.

# Set 4 — method: RNA Bind-n-Seq; molecule type: RNA; sample: in vitro; tested at: not given; relative to: input RNA pool; reading: higher = stronger binding
# Target: RING finger protein unkempt homolog, zinc fingers 1-6, GST-SBP tag (UNK, Homo sapiens, UniProt Q9C0B0, residues 30-357)
# UniProt Q9C0B0, sequence (30-357, looked up): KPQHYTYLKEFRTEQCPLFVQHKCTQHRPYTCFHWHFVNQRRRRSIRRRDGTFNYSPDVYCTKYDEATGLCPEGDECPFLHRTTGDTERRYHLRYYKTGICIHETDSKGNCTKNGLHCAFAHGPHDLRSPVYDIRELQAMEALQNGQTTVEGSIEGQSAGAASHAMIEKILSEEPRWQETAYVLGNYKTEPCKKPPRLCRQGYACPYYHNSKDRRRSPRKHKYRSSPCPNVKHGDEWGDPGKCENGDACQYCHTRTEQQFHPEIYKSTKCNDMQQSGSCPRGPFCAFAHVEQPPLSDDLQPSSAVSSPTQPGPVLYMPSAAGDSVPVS
# Notes: RNA with constant flanks, human and mouse sites, ends assumed
Strand,bound/input enrichment [ratio]
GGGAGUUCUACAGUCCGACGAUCCGGGUCGGAGACUACGUUUAUUUUGAGAAUUCCUCCAGCAACCCGUACCUCAUCAGACGGAUAGAGGAGCUCAACAAGACUGCAAGUGGCAAUGUGGAAGCAAAAGUCGUCUGCUUUUACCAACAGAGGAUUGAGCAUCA,0.178
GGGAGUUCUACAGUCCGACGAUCACUGUCAAAAGGAACUUUGACAAAUGCAUUAGUAACCAAAUAAGGCAAAUGGAAGAAGUAAAGAUCUCAAAAAAGAGUAAAGUUGGAAUUCUUCCAUUUGUUGCUGAAUUUGAAGAAUUUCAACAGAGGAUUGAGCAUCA,0.55
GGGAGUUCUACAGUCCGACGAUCUUAUUUUUAAGAAGAUGCCAAUAUAAUUUUUGUAAGAAGGCAGUAACCUUUCAUCAUGAUCAUAGGCAGUUGAAAAAUUUUUACACCUUUUUUUUCACAUUUUACAUAAAUAAUAAUGCUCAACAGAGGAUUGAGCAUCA,9.57
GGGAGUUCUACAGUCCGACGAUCGCUGGAGACUGGAAGUGUCCUAAUCCUACAUGUGAGAACAUGAACUUCUCUUGGAGAAAUGAAUGCAACCAGUGUAAGGCACCUAAGCCAGAUGGCCCAGGAGGGGGACCAGGAGGCUCUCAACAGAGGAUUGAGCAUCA,0.123
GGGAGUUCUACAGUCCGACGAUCUCCCUCUGGGUCAUAAAUAGUGCGCUCAGAAUAAAAAUUCUUUGUGCAACCUAUGUAAAUGUAAAUAUUCGAGACAUUGAUAAGAUCUAUGUUCGAACAGGUAUCUACCAUGGAGGAGAACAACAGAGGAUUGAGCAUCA,0.238
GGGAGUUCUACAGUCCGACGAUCGCUUCUCUUGCUUCUGAGGCAGUUGUGCGAGCCAGUUGGCUGCAGAGAGGGACUCUUAUCUCUUAAUGCUUUAAUACUCUCUGGCCUUGUUCCUCAUUGGCUCCCAGCUCUGCUUCUUUGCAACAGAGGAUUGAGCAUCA,0.169
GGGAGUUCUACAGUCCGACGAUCGACCUAUAUCACAAAGGCCUCCUUAAAUUUUCACUGGAUGCCGUAUCUCUGAAGGAUACUCUAGUUAUGCUGGUUGUUGACAUGUCAAAGCCUUGGACUGCUUUGGAUUCUUUACAGAAACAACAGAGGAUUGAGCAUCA,0.4
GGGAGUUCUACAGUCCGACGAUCCAGCCCUGACAGUGGGCGGGAAAACCGUGUCACGCUUCUAUAAACCUGACUCUAGAUUGGAAUUUUACCGAGAUCUUGGACUGCCACCAAAACAGAUACAUAAAAUCUUUCAUGUGACAGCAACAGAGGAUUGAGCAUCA,0.326

# For quick reference, copied from above (set 3):
Strand,fluorescence intensity
AAGGTTTCGTTATCTACCGTGTCGGAGTTAGAAGTGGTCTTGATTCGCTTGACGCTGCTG,5450 a.u.
CTTTCCCGATCTTGCTAGGTGGGTGTAGCACATTTGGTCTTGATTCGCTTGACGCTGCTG,4400 a.u.
AATTCCAATCAAAAAGTTGGTGTTAGGCTATACTGAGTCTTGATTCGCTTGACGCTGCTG,2950 a.u.
CTTCCGCGCCGTATGTGTGTGTGTCCAAGGAGTTTGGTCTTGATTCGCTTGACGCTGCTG,5810 a.u.
GCCACCATGGATCCACACGTATTTGGATCATCTTCGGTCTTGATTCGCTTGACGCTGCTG,5920 a.u.
CAAACGTCTGTTTGCCACGGGCATCGCAAATCTTACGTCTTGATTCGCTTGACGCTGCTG,7280 a.u.
CGAGTGTCATATTATATTAGATATTCATTTTTTTGCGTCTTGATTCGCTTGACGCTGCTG,3670 a.u.
